Measurements pooled from the literature.
Method: steady-state kinetics
B1: KDM4E (Homo sapiens, UniProt B2RXH2); chain MKSVHSSPQNTSHTIMTFYPTMEEFADFNTYVAYMESQGAHQAGLAKVIPPKEWKARQMYDDIEDILIATPLQQVTSGQGGVFTQYHKKKKAMRVGQYRRLANSKKYQTPPHQNFADLEQRYWKSHPGNPPIYGADISGSLFEESTKQWNLGHLGTILDLLEQECGVVIEGVNTPYLYFGMWKTTFAWHTEDMDLYSINYLHFGEPKTWYVVPPEHGQHLERLARELFPDISRGCEAFLRHKVALISPTVLKENGIPFNCMTQEAGEFMVTFPYGYHAGFNHGFNCAEAINFATPRWIDYGKMASQCSCGESTVTFSMDPFVRIVQPESYELWKHRQ
B2: enzyme (Streptomyces venezuelae, UniProt Q9ZGI2); chain SGADTGAGAGMFRALFRQAVEDDRYGEFLDVLAEASAFRPQFASPEACSERLDPVLLAGGPTDRAEGRAVLVGCTGTAANGGPHEFLRLSTSFQEERDFLAVPLPGYGTGTGTGTALLPADLDTALDAQARAILRAAGDAPVVLLGHSGGALLAHELAFRLERAHGAPPAGIVLVDPYPPGHQEPIEVWSRQLGEGLFAGELEPMSDARLLAMGRYARFLAGPRPGRSSAPVLLVRASEPLGDWQEERGDWRAHWDLPHTVADVPGDHFTMMRDHAPAVAEAVLSWLDAIEGIEGAGK
B3: protein (Thermotoga neapolitana, UniProt B9K712); chain MKMLYDLAKKRKTVRRFKKEKPPLEDLIYSLKVANEAPSGMNAQPWRFLIVEDEKLKGQIRRVCERSEKTFYENVRGRLKEWLDEKRFTWRKPFLKEAPYLLLVFSEKSAPYSRESVWLAVGYLLLALEEKGLGSVPYTPPDFREVEKLVNTPSELRLEVILPVGYPDDPKPKYPRNEVIVRYNTF
B4: genB3 Q310N (Micromonospora echinospora, UniProt Q2MG50); chain MDSANLTNRGLVERARRVTAAENYDIGTRFSAMIQSGEGAWLTDVEGNRYVDLTASSGTIILGHRNQAVTEAITRQIRDFGTAFASTLSVPRVELAERLCERYECAEKVVFHKTGSEGTAMAARLARAATGRELILSCGYHGWHEWQLAGETFGYQQTTGVVGFGYNEKALAKMLEAFGNEVAGVLISPELLYFDVEFYQRMYALCARYDVPFMMDEVYTGFRAGPKGVHGLGVPADVVVVSKGLANGHSLAAVMGRRDIIDAYDVSGINGTYTREVPPMAAAMAVLDVLDTPGVYEHAEAMGRRLADGMREILTGEGIPNWVGGPALMFDTVLPNDDLGWEIYKTAHDFGVYFEDSGTQLVTTAFDEAAVDHALTAFRKATRQVIADRPDIAPTSGGELTEERKLDFAEEAFGGLLRDDERTNALIDETIEKVVNRDRSIKPVLIPAQN
B5: DTYMK (Homo sapiens, UniProt P23919); chain MAARRGALIVLEGVDRAGKSTQSRKLVEALCAAGHRAELLRFPERSTEIGKLLSSYLQKKSDVEDHSVHLLFSANRWEQVPLIKEKLSQGVTLVVDRYAFSGVAFTGAKENFSLDWCKQPDVGLPKPDLVLFLQLQLADAAKRGAFGHERYENGAFQERALRCFHQLMKDTTLNWKMVDASKSIEAVHEDIRVLSEDAIRTATEKPLGELWK
UniProt A9CEZ0, sequence (whole entry, looked up): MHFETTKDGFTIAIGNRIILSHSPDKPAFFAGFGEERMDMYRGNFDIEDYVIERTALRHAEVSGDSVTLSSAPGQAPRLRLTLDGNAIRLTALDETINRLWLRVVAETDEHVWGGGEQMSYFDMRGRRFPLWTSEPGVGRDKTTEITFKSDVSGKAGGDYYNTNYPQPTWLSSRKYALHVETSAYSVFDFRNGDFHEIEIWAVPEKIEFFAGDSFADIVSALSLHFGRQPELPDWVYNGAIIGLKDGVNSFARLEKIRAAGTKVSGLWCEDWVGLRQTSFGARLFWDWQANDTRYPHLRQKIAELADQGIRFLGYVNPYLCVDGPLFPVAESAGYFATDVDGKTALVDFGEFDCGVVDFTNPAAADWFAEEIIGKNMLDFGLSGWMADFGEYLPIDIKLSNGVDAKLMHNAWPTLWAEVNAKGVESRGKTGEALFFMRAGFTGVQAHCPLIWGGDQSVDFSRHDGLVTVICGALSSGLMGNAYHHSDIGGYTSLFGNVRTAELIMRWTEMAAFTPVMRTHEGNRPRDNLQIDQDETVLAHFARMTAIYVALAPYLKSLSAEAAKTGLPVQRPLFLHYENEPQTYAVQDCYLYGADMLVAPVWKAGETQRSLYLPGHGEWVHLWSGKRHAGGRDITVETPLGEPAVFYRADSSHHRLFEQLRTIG
UniProt O15229, sequence (whole entry, looked up): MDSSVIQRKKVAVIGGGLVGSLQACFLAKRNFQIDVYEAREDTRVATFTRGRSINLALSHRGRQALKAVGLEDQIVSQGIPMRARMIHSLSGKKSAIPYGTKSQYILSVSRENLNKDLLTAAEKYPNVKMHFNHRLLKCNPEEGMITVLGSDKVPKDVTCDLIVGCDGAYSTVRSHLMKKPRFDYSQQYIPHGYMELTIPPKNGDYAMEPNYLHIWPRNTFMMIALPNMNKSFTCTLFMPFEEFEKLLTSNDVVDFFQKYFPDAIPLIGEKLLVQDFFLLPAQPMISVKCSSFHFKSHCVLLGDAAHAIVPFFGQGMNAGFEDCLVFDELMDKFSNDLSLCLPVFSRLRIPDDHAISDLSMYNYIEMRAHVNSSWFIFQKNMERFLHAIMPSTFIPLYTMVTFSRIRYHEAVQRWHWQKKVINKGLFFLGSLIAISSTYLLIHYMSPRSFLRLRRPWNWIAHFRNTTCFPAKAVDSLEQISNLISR
UniProt P50225, sequence (whole entry, looked up): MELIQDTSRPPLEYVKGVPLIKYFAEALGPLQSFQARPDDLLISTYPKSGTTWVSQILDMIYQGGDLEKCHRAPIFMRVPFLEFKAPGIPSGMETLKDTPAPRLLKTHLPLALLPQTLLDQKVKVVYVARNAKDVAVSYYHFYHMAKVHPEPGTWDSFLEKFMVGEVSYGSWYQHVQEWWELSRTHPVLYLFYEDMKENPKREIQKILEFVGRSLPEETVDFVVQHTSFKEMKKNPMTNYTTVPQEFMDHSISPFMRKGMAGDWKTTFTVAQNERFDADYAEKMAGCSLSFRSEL

Molecule	substrate	pH	temperature	notes	added	Km
B1 (KDM4E)	C[C@H](N)C(=O)N[C@@H](CCCNC(=N)N)C(=O)N[C@@H](CCCC[N+](C)(C)C)C(=O)N[C@@H](CO)C(=O)N[C@H](C(=O)NCC(=O)NCC(=O)N[C@@H](CCCCN)C(=O)O)[C@@H](C)O	pH 7.5	37 °C			21.3 µM
B2 (enzyme)	CC[C@@H](O)[C@H](C)/C=C/C(=O)[C@H](C)C[C@H](C)[C@H](O)[C@@H](C)C(=O)SCCNC(C)=O					4060 µM
B3 (protein)	N[C@@H](Cc1ccc(O)c(I)c1)C(=O)O	pH 7.4	25 °C			0.22 µM
B4 (genB3 Q310N)	CN[C@@H]1[C@@H](O)[C@@H](O[C@@H]2[C@@H](O)[C@H](O[C@H]3O[C@H](CN)[C@@H](O)[C@H](OP(=O)(O)O)[C@H]3N)[C@@H](N)C[C@H]2N)OC[C@]1(C)O		30 °C			250 µM
B5 (DTYMK)	Cc1cn([C@@H]2C[C@@H](O)[C@H](COP(=O)(O)O)O2)c(=O)[nH]c1=O				ATP 2 mM, Mg2+ 2 mM	380 µM
KMO (Homo sapiens, UniProt O15229)	Nc1ccccc1C(=O)CC(N)C(=O)O		37 °C	apparent, not purified		78 µM
enzyme (Astragalus mongholicus, UniProt A0A977WLP2)	CC(C)(O)[C@H]1CC[C@@](C)([C@H]2[C@@H](O)C[C@@]3(C)[C@@H]4C[C@H](O)[C@H]5C(C)(C)[C@@H](O)CC[C@@]56C[C@@]46CC[C@]23C)O1	pH 8	35 °C			23.8 µM
SULT1A1 (Homo sapiens, UniProt P50225)	O=C(O[C@@H]1Cc2c(O)cc(O)cc2O[C@@H]1c1cc(O)c(O)c(O)c1)c1cc(O)c(O)c(O)c1	pH 7.4		not purified	EGCG 0–0.4 µM	0.38 µM
enzyme (Agrobacterium fabrum, UniProt A9CEZ0)	O=[N+]([O-])c1ccc(O[C@H]2O[C@H](CS(=O)(=O)O)[C@@H](O)[C@H](O)[C@H]2O)cc1					210 µM
enzyme (Trypanosoma brucei, UniProt Q57W34)	CC(=O)N[C@H]1[C@@H](OP(=O)(O)OP(=O)(O)OCC[C@@H](C)CC/C=C(/C)CC/C=C(/C)CCC=C(C)C)O[C@H](CO)[C@@H](O[C@@H]2O[C@H](CO)[C@@H](O)[C@H](O)[C@H]2NC(C)=O)[C@@H]1O	pH 7.5				2.7 µM
